Assay results of several laboratories.
Protocols differ between the studies behind these lines. Several values in a cell are separate wells, animals, samples, runs or records. ± gives the spread as reported.
STING1 H232R: Stimulator of interferon genes protein (STING1, Homo sapiens, UniProt Q86WV6, H232R)
UniProt Q86WV6, sequence (whole entry, unmodified, looked up): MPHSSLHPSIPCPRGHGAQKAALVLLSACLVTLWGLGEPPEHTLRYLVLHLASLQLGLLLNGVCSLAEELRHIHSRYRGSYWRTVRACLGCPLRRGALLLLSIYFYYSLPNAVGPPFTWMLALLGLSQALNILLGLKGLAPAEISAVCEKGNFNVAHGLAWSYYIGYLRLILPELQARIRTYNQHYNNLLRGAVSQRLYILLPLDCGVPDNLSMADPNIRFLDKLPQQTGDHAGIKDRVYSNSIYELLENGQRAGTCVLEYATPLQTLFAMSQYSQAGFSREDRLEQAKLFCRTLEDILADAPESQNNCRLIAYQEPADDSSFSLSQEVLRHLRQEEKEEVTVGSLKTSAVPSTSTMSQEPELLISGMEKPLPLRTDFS
IFIT1: Antiviral innate immune response effector IFIT1 (IFIT1, Homo sapiens, UniProt P09914)
UniProt P09914, sequence (whole entry, looked up): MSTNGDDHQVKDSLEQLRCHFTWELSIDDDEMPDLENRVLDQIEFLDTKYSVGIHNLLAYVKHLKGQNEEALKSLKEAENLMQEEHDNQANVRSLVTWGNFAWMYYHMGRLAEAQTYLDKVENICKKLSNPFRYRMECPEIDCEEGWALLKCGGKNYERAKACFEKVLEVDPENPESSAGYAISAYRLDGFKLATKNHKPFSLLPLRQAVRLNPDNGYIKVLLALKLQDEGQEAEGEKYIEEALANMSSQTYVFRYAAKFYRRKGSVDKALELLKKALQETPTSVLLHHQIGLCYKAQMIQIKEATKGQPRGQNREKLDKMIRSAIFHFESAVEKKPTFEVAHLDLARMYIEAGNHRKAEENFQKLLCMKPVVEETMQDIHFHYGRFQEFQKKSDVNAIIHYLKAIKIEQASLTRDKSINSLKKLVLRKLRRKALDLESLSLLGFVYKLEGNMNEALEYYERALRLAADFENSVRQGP
UniProt P47936, sequence (whole entry, looked up): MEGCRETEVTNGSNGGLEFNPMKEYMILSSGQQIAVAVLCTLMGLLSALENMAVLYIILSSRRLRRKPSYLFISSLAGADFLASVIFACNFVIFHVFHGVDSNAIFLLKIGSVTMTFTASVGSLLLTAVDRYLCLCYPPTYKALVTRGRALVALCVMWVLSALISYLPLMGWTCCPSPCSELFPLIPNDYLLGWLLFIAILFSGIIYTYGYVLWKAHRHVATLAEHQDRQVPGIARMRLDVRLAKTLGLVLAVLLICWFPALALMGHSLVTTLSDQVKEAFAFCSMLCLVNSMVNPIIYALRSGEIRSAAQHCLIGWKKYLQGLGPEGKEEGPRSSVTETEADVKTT
UniProt Q15059, sequence (whole entry, looked up): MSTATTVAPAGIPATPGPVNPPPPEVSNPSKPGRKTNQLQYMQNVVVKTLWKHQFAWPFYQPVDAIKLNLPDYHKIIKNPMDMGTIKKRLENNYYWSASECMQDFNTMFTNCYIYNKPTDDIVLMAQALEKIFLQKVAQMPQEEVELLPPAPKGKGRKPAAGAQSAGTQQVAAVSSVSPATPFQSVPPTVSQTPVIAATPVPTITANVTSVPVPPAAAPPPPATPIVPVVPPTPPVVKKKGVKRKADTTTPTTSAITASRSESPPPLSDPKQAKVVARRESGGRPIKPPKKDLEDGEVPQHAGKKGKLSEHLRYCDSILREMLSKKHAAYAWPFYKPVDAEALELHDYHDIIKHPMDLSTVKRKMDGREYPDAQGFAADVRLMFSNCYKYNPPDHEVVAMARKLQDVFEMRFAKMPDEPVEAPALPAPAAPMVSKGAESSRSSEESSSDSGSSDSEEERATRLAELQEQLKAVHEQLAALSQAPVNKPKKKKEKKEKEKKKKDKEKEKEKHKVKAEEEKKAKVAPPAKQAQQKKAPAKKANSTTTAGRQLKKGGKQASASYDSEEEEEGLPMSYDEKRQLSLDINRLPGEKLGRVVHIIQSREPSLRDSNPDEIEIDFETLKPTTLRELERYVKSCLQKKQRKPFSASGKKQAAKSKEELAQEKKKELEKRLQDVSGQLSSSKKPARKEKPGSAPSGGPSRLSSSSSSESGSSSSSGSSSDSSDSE
UniProt P53778, sequence (whole entry, looked up): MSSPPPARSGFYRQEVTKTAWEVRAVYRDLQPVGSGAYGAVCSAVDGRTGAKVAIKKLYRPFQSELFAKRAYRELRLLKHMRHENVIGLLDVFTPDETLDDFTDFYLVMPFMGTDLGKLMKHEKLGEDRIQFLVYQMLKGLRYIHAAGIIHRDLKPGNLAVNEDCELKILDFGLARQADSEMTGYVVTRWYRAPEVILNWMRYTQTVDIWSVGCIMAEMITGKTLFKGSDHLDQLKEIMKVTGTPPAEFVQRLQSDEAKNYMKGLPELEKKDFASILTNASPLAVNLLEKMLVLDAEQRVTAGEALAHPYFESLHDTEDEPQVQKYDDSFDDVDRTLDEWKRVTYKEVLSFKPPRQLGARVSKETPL
UniProt Q9SZU7, sequence (whole entry, unmodified, looked up): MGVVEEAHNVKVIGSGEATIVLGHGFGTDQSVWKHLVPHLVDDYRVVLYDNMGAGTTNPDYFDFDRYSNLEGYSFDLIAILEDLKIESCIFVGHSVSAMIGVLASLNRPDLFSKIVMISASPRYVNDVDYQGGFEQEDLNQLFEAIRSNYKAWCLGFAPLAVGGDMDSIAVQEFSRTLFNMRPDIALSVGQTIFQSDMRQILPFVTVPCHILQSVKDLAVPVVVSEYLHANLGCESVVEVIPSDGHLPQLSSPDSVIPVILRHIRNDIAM
UniProt Q92847, sequence (whole entry, looked up): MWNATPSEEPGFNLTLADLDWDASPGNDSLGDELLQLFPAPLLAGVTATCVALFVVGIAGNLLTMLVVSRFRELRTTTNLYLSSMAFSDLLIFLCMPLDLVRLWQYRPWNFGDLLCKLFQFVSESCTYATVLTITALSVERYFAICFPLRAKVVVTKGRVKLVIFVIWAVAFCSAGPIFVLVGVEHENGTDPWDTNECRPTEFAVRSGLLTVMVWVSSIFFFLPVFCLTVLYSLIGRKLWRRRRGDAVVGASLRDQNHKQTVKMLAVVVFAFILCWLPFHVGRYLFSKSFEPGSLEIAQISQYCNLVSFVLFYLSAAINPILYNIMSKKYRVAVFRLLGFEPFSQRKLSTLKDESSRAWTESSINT
UniProt P47898, sequence (whole entry, looked up): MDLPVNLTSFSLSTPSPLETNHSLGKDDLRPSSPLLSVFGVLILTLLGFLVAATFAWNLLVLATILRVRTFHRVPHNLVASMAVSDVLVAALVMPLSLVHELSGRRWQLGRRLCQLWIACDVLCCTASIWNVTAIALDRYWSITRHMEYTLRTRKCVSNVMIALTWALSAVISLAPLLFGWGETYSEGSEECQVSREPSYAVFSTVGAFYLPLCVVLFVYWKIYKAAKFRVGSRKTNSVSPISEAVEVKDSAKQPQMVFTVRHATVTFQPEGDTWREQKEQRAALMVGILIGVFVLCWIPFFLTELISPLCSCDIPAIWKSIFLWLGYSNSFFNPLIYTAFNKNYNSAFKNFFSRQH
UniProt P45983, sequence (whole entry, looked up): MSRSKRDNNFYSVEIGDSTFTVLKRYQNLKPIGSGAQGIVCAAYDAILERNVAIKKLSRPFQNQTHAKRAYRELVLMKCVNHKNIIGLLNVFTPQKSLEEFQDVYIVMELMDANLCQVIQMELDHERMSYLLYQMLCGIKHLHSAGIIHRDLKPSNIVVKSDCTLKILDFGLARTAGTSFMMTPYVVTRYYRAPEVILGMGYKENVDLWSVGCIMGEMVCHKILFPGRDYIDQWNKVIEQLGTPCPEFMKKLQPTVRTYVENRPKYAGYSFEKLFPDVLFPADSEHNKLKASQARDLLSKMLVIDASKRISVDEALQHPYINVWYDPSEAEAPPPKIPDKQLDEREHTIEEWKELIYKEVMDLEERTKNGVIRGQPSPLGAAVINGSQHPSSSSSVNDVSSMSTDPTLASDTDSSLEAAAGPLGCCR
UniProt P02754, sequence (whole entry, unmodified, looked up): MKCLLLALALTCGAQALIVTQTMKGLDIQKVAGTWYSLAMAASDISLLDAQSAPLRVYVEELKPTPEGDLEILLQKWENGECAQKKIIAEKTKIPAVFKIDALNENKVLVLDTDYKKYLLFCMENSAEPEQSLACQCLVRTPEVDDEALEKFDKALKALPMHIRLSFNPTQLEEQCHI

O=P(O)(O)OP(=O)(O)OP(=O)(O)OCCCCO  Ki (DNA polymerase beta (POLB, Homo sapiens, UniProt P06746); DNA polymerase activity, inhibitor; together with: 1 mM Mg2+, poly(dA)/oligo(dT)): > 400 µM
O=C(N[C@@H](CCCCNC(=O)c1ccc([N+](=O)[O-])o1)c1nc2ccccc2[nH]1)c1ccc(-c2cncnc2)cc1  EC50 (STING1 H232R; reporter gene, inhibitor; THP1-Dual KI-hSTING-R232; 24 h, 1 h preincubation, together with: diABZI 500 nM): 7.6 µM
O=C1c2ccc3c4ccc5c6c(ccc(c7ccc(c2c37)C(=O)N1CCN1CCCCC1)c64)C(=O)N(CCN1CCCCC1)C5=O  DC50 (human telomeric G-quadruplex DNA; binding, thiazole orange displacement; pH 7): 0.98 ± 0.08 µM
C#CCOC(=O)[C@@]1(C)C=C(C(=O)OC(C)(C)C)C(=O)CC1  fraction bound (MAPK8 (Homo sapiens, UniProt P45983); D-peptide binding, inhibitor, FP peptide displacement; 6.25 µM; lower is stronger displacement): 0.913
Nc1ncc(-c2cc(-c3cnn(CC(F)(F)F)c3)ncc2F)nc1C(=O)NC1CNCC(F)C1 (stereo not shown)  remaining binding (ACVR2A; KINOMEscan; 1 µM; reference: DMSO control): 93%
CCOC(=O)[C@](CC)(CCCSCCOCCOCCN)NC(=O)c1ccc(C2CC2)c(Cc2ccc(F)cc2)n1  Ki (Cnr2 (Mus musculus, UniProt P47936); ligand displacement, radioligand; cell membranes): 0.0026 µM
COc1ccc(C(=O)c2c(C(=O)NCCCN(C)C)oc3ccc(Cl)cc3c2=O)cc1OC  EC50 (GHSR (Homo sapiens, UniProt Q92847); Gαs dissociation, agonist, TRUPATH BRET; HEK293T): 0.501 µM
O=C(N[C@@H](CCNC(=O)c1ccc([N+](=O)[O-])o1)c1nc2ccccc2[nH]1)c1ccn(-c2ccccc2)n1  EC50 (STING1 H232R; reporter gene, inhibitor; THP1-Dual KI-hSTING-R232; 24 h, 1 h preincubation, together with: diABZI 500 nM): 18 µM
Cc1nn(-c2cccc(N)c2)c(=O)c2cnc(Nc3ccc(N4CCNCC4)cc3)nc12  IC50 (MAPK12 (Homo sapiens, UniProt P53778); SelectScreen kinase): > 10 µM
Cc1ncsc1-c1ccc(C(C)NC(=O)C2CC(O)CN2C(=O)C(NC(=O)CCCCCCCCCCN2CCCC(Nc3ncc(Cl)c(Nc4ccccc4S(=O)(=O)C(C)C)n3)C2)C(C)(C)C)cc1 (stereo not shown)  log2 fold change (22Rv1; RNA-seq, refers to: PRDM11 mRNA; concentration not given; reference: DMSO): -2.76
O=C(O)[C@@H]1O[C@@H](O[C@H]2[C@H](O)[C@H](O)[C@H](O[C@H]3[C@H](O)[C@H](O)[C@H](O[C@H]4[C@H](O)[C@H](O)[C@H](O)O[C@H]4C(=O)O)O[C@H]3C(=O)O)O[C@H]2C(=O)O)[C@@H](O)[C@@H](O)[C@@H]1O  Kd (Beta-lactoglobulin (LGB, Bos taurus, UniProt P02754, A134V/G80D); isothermal titration calorimetry; pH 2.65, 37 °C, 50 mM KH2PO4): 397 µM
CC(C)=CCc1cc(C(=O)/C=C/c2ccc(O)cc2)c(O)cc1O  substrate inhibition constant (phase I metabolism, substrate; monkey liver microsomes): 29.6 ± 5.71 µM
CC(=O)N1c2ccc(-c3ccc(CNC(=O)c4cn5cc(-c6cnc(N)nc6)nc(N6CCOCC6)c5n4)cc3)cc2CC[C@@H]1C  Kd (Bromodomain-containing protein 3, BD1 (BRD3, Homo sapiens, UniProt Q15059); binding, competition with immobilised ligand): 0.038 µM
CCc1ccc(-c2nc(N)c3c(Nc4ccc(F)cc4)n[nH]c3n2)cc1  CC50 (HeLa Ohio; 72 h): 88.7 µM
O=C(O)C(Cc1c[nH]cn1)N1C(=O)c2ccc3c4ccc5c6c(ccc(c7ccc(c2c37)C1=O)c64)C(=O)N(CCN1CCCCC1)C5=O (stereo not shown)  DC50 (human telomeric G-quadruplex DNA; binding, thiazole orange displacement; pH 7): 0.28 ± 0.11 µM
O=C(N[C@@H](CCNC(=O)c1ccc([N+](=O)[O-])o1)c1nc2ccccc2[nH]1)c1ccc2ccccc2c1  EC50 (STING1 H232R; reporter gene, inhibitor; THP1-Dual KI-hSTING-R232; 24 h, 1 h preincubation, together with: diABZI 500 nM): 16.7 µM
C[n+]1cn([C@@H]2O[C@H](COP(=O)(O)OP(=O)([O-])OP(=O)(O)OC[C@H]3O[C@@H](n4cnc5c(N)ncnc54)[C@H](O)[C@@H]3OP(=O)(O)OC[C@H]3O[C@@H](n4cnc5c(=O)[nH]c(N)nc54)[C@H](O)[C@@H]3O)[C@@H](O)[C@H]2O)c2nc(N)nc(O)c21  Kd (IFIT1; microscale thermophoresis; pH 7.5, together with: structured cap I RNA, 35 nt): 0.008 µM
O=C(O)C(Cc1c[nH]cn1)N1C(=O)c2ccc3c4ccc5c6c(ccc(c7ccc(c2c37)C1=O)c64)C(=O)N(C(Cc1c[nH]cn1)C(=O)O)C5=O (stereo not shown)  DC50 (human telomeric G-quadruplex DNA; binding, thiazole orange displacement; pH 6): > 2.5 µM
O=C(N[C@@H](CCNC(=O)c1ccc([N+](=O)[O-])o1)c1nc2ccccc2[nH]1)c1ccc(-c2ccccc2)o1  EC50 (STING1 H232R; reporter gene, inhibitor; THP1-Dual KI-hSTING-R232; 24 h, 1 h preincubation, together with: diABZI 500 nM): 19.2 µM
CC(C)C[C@H](NC(=O)[C@@H](CCCCNC(=O)[C@@H](Cc1ccccc1)NC(=O)CCCCCNC(=O)CN1CCN(CC(=O)O)CCN(CC(=O)O)CCN(CC(=O)O)CC1)NC(=O)[C@H](Cc1ccc(O)cc1)NC(=O)[C@H](CO)NC(=O)[C@H](Cc1c[nH]c2ccccc12)NC(=O)[C@H](Cc1c[nH]cn1)NC(=O)[C@@H]1CCC(=O)N1)C(=O)N[C@@H](CCCNC(=N)N)C(=O)N1CCC[C@H]1C(=O)NCC(N)=O [indium-111 labelled]  tissue uptake (female athymic nude mice, pancreas; intravenous, 0.037 MBq, 2 h): 0.05 ± 0.03 %ID/g
Nc1nc(-c2ccccc2F)nc2[nH]nc(Nc3ccc(F)cc3)c12  CC50 (HeLa Ohio; 72 h): > 148 µM
COC1CN([C@H]2CC[C@H]([C@@]3(C)Oc4c(Cl)cc(C(=O)NCc5c(SC)cc(C)[nH]c5=O)c(C)c4O3)CC2)C1  log2 fold change (RNA-seq, refers to: ENAH; human, whole blood; dose not given, 24 h; reference: pretreatment baseline): 1.7
Cc1cccc2c1N(C(=O)n1ccnn1)CC2  Kd (KAI2 (Arabidopsis thaliana, UniProt Q9SZU7, H246A); ITC; H246A mutant, mean): 90.8 µM
Cn1ccc2c(N3CCN(CCCCOc4ccc5c(c4)NC(=O)CC5)CC3)cccc21  Ki (HTR5A (Homo sapiens, UniProt P47898); ligand displacement, radioligand): > 10 µM
O=C(N[C@@H](CCCCNC(=O)c1ccc([N+](=O)[O-])o1)c1nc2ccccc2[nH]1)c1cnc(-c2ccccc2)nc1  EC50 (STING1 H232R; reporter gene, inhibitor; THP1-Dual KI-hSTING-R232; 24 h, 1 h preincubation, together with: diABZI 500 nM): 6.2 µM
OC(Cc1cc(-c2ccc(C(O)C(F)(F)F)s2)sc1-c1ccc(-c2sc(-c3ccc(C(O)C(F)(F)F)s3)cc2CC(O)C(F)(F)F)s1)C(F)(F)F (stereo not shown)  amount in cell extract (primary human fetal neurons; LC-MS/MS; 4 µM, 120 min, replicate 3): 0.02 nmol and 0.03 nmol
CO[C@@H]1[C@H](OP(=O)(O)OC[C@H]2O[C@@H](n3cnc4c(=O)[nH]c(N)nc43)[C@H](O)[C@@H]2O)[C@@H](COP(=O)(O)OP(=O)([O-])OP(=O)(O)OC[C@H]2O[C@@H](n3c[n+](C)c4c(O)nc(N)nc43)[C@H](O)[C@@H]2O)O[C@H]1n1cnc2c(N)ncnc21  Kd (IFIT1; microscale thermophoresis; pH 7.5, together with: unstructured cap II RNA, 35 nt): 0.06 µM
O=C(N[C@@H](CCCCNC(=O)c1ccc([N+](=O)[O-])o1)c1nc2ccccc2[nH]1)c1ccc(-c2ccccc2)o1  EC50 (STING1 H232R; reporter gene, inhibitor; THP1-Dual KI-hSTING-R232; 24 h, 1 h preincubation, together with: diABZI 500 nM): 17.6 µM
